Results collected from several papers.
Protocols differ between the studies behind these lines.
Target: Myosin light chain kinase, smooth muscle (MYLK, Homo sapiens, UniProt Q15746)

| SMILES | observed | mode | method | concentration | relative to | endpoint | value |
| --- | --- | --- | --- | --- | --- | --- | --- |
| Cc1ccc(C)c(-c2ccc3nc(NC(=O)C4CCCCC4)nn3c2)c1 | enzyme activity | – | Dundee kinase panel | 10 µM | – | remaining activity | 85% |
| CCN1CCN(Cc2ccc(C(=O)Nc3ccc(C)c(NCc4cnc5[nH]ccc5c4OC)c3)cc2C(F)(F)F)CC1 | binding | – | competition with immobilised ligand | 1 µM | – | remaining binding | 100% |
| Cc1cccc(-c2ccc3nc(NC(=O)C4CCCCC4)nn3c2)c1 | enzyme activity | – | Dundee kinase panel | 10 µM | – | remaining activity | 83% |
| Cc1cnc2nc1Nc1cccc(c1)COC/C=C/COCc1cc(ccc1OCCN1CCOCC1)N2 | binding | – | – | 0.1 µM | – | remaining binding | 75% |
| COc1cc(Nc2nc(C)cc(-c3cnn4nc(OC)ccc34)n2)cc(C(F)(F)F)c1 | – | inhibitor | – | 1 µM | control | remaining activity | 58% |
| COc1c(Cl)cccc1Nc1c(-c2ccncc2C#C[C@@]2(C)CCCN2C(=O)/C=C/CN(C)C)[nH]c2c1C(=O)NCC2 | binding | – | competition with immobilised ligand | 3 µM | – | remaining binding | 100% |
| CN1CCN(Cc2ccc(-c3ccc(CO[C@H]4CCC[C@@H]4NC(=O)c4cc(-c5cnn(C)c5)cnc4N)cc3)cc2)CC1 | enzyme activity | inhibitor | – | 0.1 µM | – | inhibition | 1% |
| Nc1ncc2c(n1)-c1c([nH]c3ccc(C4=CCOCC4)cc13)CCC2 | binding | – | competition with immobilised ligand | 1 µM | – | remaining binding | 94% |
| Nc1ncc(-c2cc(-c3cnn(CC(F)(F)F)c3)ncc2F)nc1C(=O)NC1CNCC(F)C1 (centres unmarked) | enzyme activity | – | – | 1 µM | DMSO control | remaining activity | 91.9% |
| c1ccc2c(Nc3cc(C4CCC4)[nH]n3)nc(Nc3ccc4nc[nH]c4c3)nc2c1 | enzyme activity | inhibitor | – | 0.25 µM | – | remaining activity | 39% |
| CNC(=O)C1CCN(c2cc(C)c(F)cc2NC(=O)c2ccc(-c3cc(O)ccc3C)c(C)c2)CC1 | binding | – | competition with immobilised ligand | 1 µM | – | remaining binding | 93% |
| CN1CC[C@@H](COc2cnc(C#N)cc2-c2ccn3nc(NC(=O)C4CC4)cc3c2)C1 | enzyme activity | inhibitor | – | 1 µM | – | inhibition | -18% |
| CNC1C[S+]2CC[S+]3CC[S+](C1)[Ru-4]321([N]=C=S)[n]2c3ccc(OC)cc3c3c4c(c5cc(F)c[n+]1c5c32)C(=O)NC4=O (centres unmarked) | – | – | KinomeScan | 0.1 µM | untreated | remaining binding | 0.8% |
| NC(=O)C[C@H]1CCc2sc3ncnc(O[C@H]4CC[C@H](N5CCOCC5)CC4)c3c21 | enzyme activity | inhibitor | – | 10 µM | – | inhibition | 5% |

Repeated from above:
| SMILES | observed | mode | method | concentration | relative to | endpoint | value |
| --- | --- | --- | --- | --- | --- | --- | --- |
| Nc1ncc(-c2cc(-c3cnn(CC(F)(F)F)c3)ncc2F)nc1C(=O)NC1CNCC(F)C1 (centres unmarked) | enzyme activity | – | – | 1 µM | DMSO control | remaining activity | 91.9% |
| c1ccc2c(Nc3cc(C4CCC4)[nH]n3)nc(Nc3ccc4nc[nH]c4c3)nc2c1 | enzyme activity | inhibitor | – | 0.25 µM | – | remaining activity | 39% |
